Assay results of several laboratories.
Every numbered part comes from another study and shows a few of its results, in no order. Changes are numbered by the printed parent chain.

Set 1 — target: CCND2, cyclin fold, Cln2 fusion (human); technique: yeast growth competition, sequencing; medium: yeast; notes: weak parent motif; baseline: not given; reading: higher = stronger binding; endpoint: normalised enrichment score
Starting sequence: MASTL docking peptide (human); PMIAKNLMCELDE
PMIAKNLMCHLDE [E10H]: -0.0382
PMIAKNLMCETDE [L11T]: -0.0223
PMIAKNLMCILDE [E10I]: -0.00187
PMIAKNLMCELEE [D12E]: 0.0168
PMGAKNLMCELDE [I3G]: 0.411
PMIRKNLMCELDE [A4R]: 0.178
PMIAKNLMCEGDE [L11G]: 0.32
PMIAKNLYCELDE [M8Y]: -0.192
PMIAKNLMCELYE [D12Y]: -0.412

Set 2 — technique: RNA Bind-n-Seq; form: RNA; medium: in vitro; concentration: not given; baseline: input RNA pool; reading: higher = stronger binding; endpoint: bound/input enrichment
Target: RING finger protein unkempt homolog, zinc fingers 1-6, GST-SBP tag (UNK, Homo sapiens, UniProt Q9C0B0, residues 30-357)
Sequence of UniProt Q9C0B0 (30-357, looked up): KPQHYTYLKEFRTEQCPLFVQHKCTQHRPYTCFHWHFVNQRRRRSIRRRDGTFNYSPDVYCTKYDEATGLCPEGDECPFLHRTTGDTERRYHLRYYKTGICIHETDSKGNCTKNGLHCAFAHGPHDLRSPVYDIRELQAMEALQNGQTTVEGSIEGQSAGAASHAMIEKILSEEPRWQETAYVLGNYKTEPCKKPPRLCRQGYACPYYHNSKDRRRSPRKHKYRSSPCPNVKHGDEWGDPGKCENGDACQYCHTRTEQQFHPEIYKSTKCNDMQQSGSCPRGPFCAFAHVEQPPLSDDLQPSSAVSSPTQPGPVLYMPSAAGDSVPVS
Notes: RNA with constant flanks, human and mouse sites, ends assumed
Constant ends, left off below: GGGAGUUCUACAGUCCGACGAUC … CAACAGAGGAUUGAGCAUCA
UUUCCAGAUCAAGGAUACAGAGGUCGAGGCCGAGGUGAAUAUUACUCCAGAGGUCGAAGCUAUAGAGGUUCUUAUGGAGGGCGUGGCAGGGGUGGUAGGGGACACACUCGAGAUUAUCCU: 0.482 ratio
CUCCAGAAAAUGAUAGGAAACAUAUUUACCCAGCAGCCAAGUUACUAUACUGACCUGGAUGAAACCAUUCCCACCAUACUUCAGGUCUUCAGCAAUAUCCUCCAGCACUGUGGUUUGCAA: 0.852 ratio
AUAUUUUUUGAACCUAAAAUACUUUACCGGGCAGCAGUGGAACAGGUCCCAGUAGAACCCUACAAGAUCCCCUUGUCUCAGGCUGAAGUCAUCCAGGAGGGCAGCGAUGUGACUCUGGUU: 0.66 ratio
UCUGUCAGAUUGCUUUCAGGGAUCAGGGAAGGUCUGUAGGCAGAAGGUAUGAUGGUGCCCUAGCAGAGUAUGAAACCUUACUCAUUACAGUAAUUAAUUAGGGAAGCAGCCGCAGGCCGU: 1.17 ratio
GAAAUGUAUGACUAUCAAGGCAGGUCCUACCUUCACAUACCUCAGGAUGUUGGUGUUAAUCUACGGUCAUCUGUGCCACCUGAAAAAUGUUACCUUCCCAAAAAACAAAUUCACGUGUGG: 0.163 ratio
AAAUUCAAAGGCCCCUUCACAGAUGUAGUCACUACAAAUCUUAAAUUGCAAAAUCCAUCGGAUAGAAAAGUGUGUUUCAAAGUGAAGACUACAGCACCUCGCCGGUACUGUGUGCGGCCC: 0.308 ratio
CUUUUUGCAGGACUUAUGGUUAAAGUGCCAGUGGGGCUGUAUUUUUCCUGUAAAUUACUUCUUUUCCAAAGCUUGAUGUUAAUGUCCCCGGAAGACAGCGCUUUUUAUGCGACCAUUGUC: 0.145 ratio

Set 3 — technique: DHFR PCA, deep sequencing; medium: yeast; added: (+)-ABA 0.39 µM; baseline: wild-type fitted maximum; reading: higher = stronger binding; endpoint: relative binding score
Target: ABI1, truncated, D143A, DHFR fusion (Arabidopsis thaliana)
Notes: methotrexate growth selection, single substitutions
Starting sequence: PYL1, truncated, DHFR fusion (Arabidopsis thaliana); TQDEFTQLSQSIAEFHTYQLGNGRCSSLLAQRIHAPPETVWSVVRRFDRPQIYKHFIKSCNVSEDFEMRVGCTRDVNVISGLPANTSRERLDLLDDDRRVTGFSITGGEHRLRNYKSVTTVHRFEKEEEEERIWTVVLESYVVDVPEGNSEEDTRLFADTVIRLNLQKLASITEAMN; partner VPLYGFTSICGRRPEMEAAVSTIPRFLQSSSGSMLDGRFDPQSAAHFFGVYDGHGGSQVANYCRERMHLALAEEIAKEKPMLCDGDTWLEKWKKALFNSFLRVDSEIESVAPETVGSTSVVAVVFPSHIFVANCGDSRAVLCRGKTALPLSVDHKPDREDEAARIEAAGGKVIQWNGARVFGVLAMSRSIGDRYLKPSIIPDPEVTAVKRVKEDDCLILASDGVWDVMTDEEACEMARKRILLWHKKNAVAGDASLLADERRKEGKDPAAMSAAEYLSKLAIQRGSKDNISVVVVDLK
A175S: 39.4%
P37L: 9.53%
N149K: 9.85%
L94N: -7.64%
Y115E: -10%
V145Q: -19.6%
K168N: 75.9%
S42C: 9.1%
V44D: -9.06%

Mixed results
PhoQ, residues 284 288 289 292 302 303 TNSAEL — fold induction (PhoP, residues 12 14 15 18 19 YHFSH (Escherichia coli, UniProt P23836); Sort-seq, item: YFP reporter; E. coli; PhoQ-PhoP variant library, added: 10 µM Mg2+; baseline: high Mg2+ state, higher = stronger signaling): 8.64

A few entries again (set 2):
AAAUUCAAAGGCCCCUUCACAGAUGUAGUCACUACAAAUCUUAAAUUGCAAAAUCCAUCGGAUAGAAAAGUGUGUUUCAAAGUGAAGACUACAGCACCUCGCCGGUACUGUGUGCGGCCC: 0.308 ratio
CUUUUUGCAGGACUUAUGGUUAAAGUGCCAGUGGGGCUGUAUUUUUCCUGUAAAUUACUUCUUUUCCAAAGCUUGAUGUUAAUGUCCCCGGAAGACAGCGCUUUUUAUGCGACCAUUGUC: 0.145 ratio
